Assay results of several laboratories.
Compare with care: the assays were run in different laboratories. Numbers after ± are the reported error.

| Structure (SMILES) | assay | test system | setting | scale | endpoint | value |
| --- | --- | --- | --- | --- | --- | --- |
| COc1ccc2c3c([nH]c2c1)CCN(C)CC3 | heroin self-administration | Wistar rat | intraperitoneal, 40 mg/kg, single | – | duration of effect | 12 to 14 days |
| C=C(NC(=O)C(=C)NC(=O)c1csc(C2=NC3c4csc(n4)C4NC(=O)c5csc(n5)C(C(C)(O)C(C)O)NC(=O)C5CSC(=N5)C(=CC)NC(=O)C(C(C)O)NC(=O)c5csc(n5)C3(CC2)NC(=O)C(C)NC(=O)C(=C)NC(=O)C(C(C)CC)NC2C=Cc3c(C(C)O)cc(nc3C2O)C(=O)OC4C)n1)C(N)=O (centres unmarked) | protein synthesis, coupled transcription-translation, refers to: luciferase | Escherichia coli S30 extract | 1 h, 37 °C | – | IC50 | 8.1 ± 1 µM |
| CC(C)C[C@@H]1NC(=O)[C@H](C(C)C)NC(=O)[C@H](CO)NC(=O)CNC(=O)CNC(=O)[C@H](CCCNC(=N)N)NC(=O)[C@@H]2CCCN2C(=O)[C@@H](NC(=O)CC[C@H](NC(=O)c2ccc(N(C)Cc3cnc4nc(N)nc(N)c4n3)cc2)C(=O)O)C(C)(C)SSC[C@@H](C(=O)O)NC(=O)CNC(=O)[C@H]([C@@H](C)O)NC(=O)[C@H](C(C)C)NC1=O | – | rat adjuvant arthritis | iv, 1 mg/kg once daily, day 14 | – | liver weight | 5.95 ± 0.195 g |
| CC(C)C[C@H](NC(=O)[C@H](CC(N)=O)NC(=O)[C@@H](NC(=O)[C@H](Cc1ccccc1)NC(=O)[C@H](CC(C)C)NC(=O)[C@@H]1CCCN1C(=O)[C@H](C)NC(=O)[C@@H](N)Cc1ccccc1)[C@@H](C)O)C(=O)O | – | C57BL/6 mouse, HSV-1 infected, spleen | dose not given, 8 dpi | baseline: all HSV epitopes | share of HSV-specific CD8 response | 5.24% |
| CC[C@H](C)[C@H](NC(=O)[C@@H](NC(=O)[C@H](CC(=O)O)NC(C)=O)[C@@H](C)O)C(=O)N[C@@H](CCCNC(=N)N)C(=O)N[C@@H](CC(C)C)C(=O)N[C@@H](CC(C)C)C(=O)N[C@@H](Cc1ccccc1)C(=O)N[C@@H](CCC(N)=O)C(=O)N[C@@H](CC(C)C)C(=O)N[C@@H](CCSC)C(=O)N[C@@H](CCCNC(=N)N)C(=O)N1CCC[C@H]1C(=O)N1CCC[C@H]1C(=O)N[C@@H](CC(N)=O)C(=O)N[C@@H](CCSC)C(=O)N[C@H](C(=O)N1CCC[C@H]1C(=O)N[C@@H](C)C(=O)N[C@H](C(=O)N[C@@H](CC(N)=O)C(=O)N[C@@H](C)C(N)=O)C(C)C)[C@@H](C)O | refers to: HA-02 tetramer | antigen-experienced tetramer+ CD4 T cells, healthy adults, HLA-DRB1*0101 | dose not given | – | α4β7− CCR9+ cells | 6.67% |
| C[C@H](NC(=O)[C@H](CCC(N)=O)NC(=O)[C@H](CCCCN)NC(=O)[C@H](C)NC(=O)[C@@H]1CCCN1C(=O)[C@H](C)NC(=O)[C@H](CCCCN)NC(=O)[C@H](CCC(N)=O)NC(=O)[C@H](C)NC(=O)[C@H](CCCCN)NC(=O)[C@H](CCC(N)=O)NC(=O)[C@@H]1CCCN1C(=O)[C@H](CCC(N)=O)NC(=O)[C@H](CCCCN)NC(=O)[C@H](C)NC(=O)[C@H](CCC(N)=O)NC(=O)[C@H](CCCCN)NC(=O)[C@H](C)NC(=O)[C@@H]1CCCN1C(=O)[C@H](C)NC(=O)[C@H](CCCCN)NC(=O)[C@H](CCC(N)=O)NC(=O)[C@H](C)NC(=O)[C@H](CCCCN)NC(=O)[C@H](CO)NC(=O)[C@H](Cc1ccc(O)cc1)NC(=O)CNC(=O)CNC(=O)CN)C(=O)N[C@@H](CCCCN)C(=O)N[C@@H](CCC(N)=O)C(=O)O | binding | AA amyloid mouse liver homogenate | 1 h, room temperature | – | bound fraction | 11% |
| COC(=O)C[C@](O)(CCCC(C)(C)OC(C)=O)C(=O)O[C@@H]1C(OC)=C[C@]23CCCN2CCc2cc4c(cc2[C@H]13)OCO4 | western blot | BALB/c nude mouse, KP-4 xenograft, tumour | 5.4 mg/kg | baseline: vehicle | MCL-1 protein level | decreased |
| CCN(Cc1ccccc1)C(=O)CCc1nc(CN2CCN(C(=O)Cc3ccc(OC)c(OC)c3)CC2)no1 | current clamp | L4-L6 DRG neurons, rat CCI model | 1 µM, added: 500 pA current injection | – | action potential threshold | -10.5 ± 2.34 mV |
| C[C@H](NC(=O)[C@H](CCC(N)=O)NC(=O)[C@H](C)NC(=O)[C@H](CCCCN)NC(=O)[C@H](CCC(N)=O)NC(=O)[C@H](C)NC(=O)[C@H](CCCCN)NC(=O)[C@H](CCC(N)=O)NC(=O)[C@H](C)NC(=O)[C@H](CCC(N)=O)NC(=O)[C@H](CCCCN)NC(=O)[C@H](C)NC(=O)[C@H](CCC(N)=O)NC(=O)[C@H](CCCCN)NC(=O)[C@H](C)NC(=O)[C@H](CCC(N)=O)NC(=O)[C@H](C)NC(=O)[C@H](CCCCN)NC(=O)[C@H](CCC(N)=O)NC(=O)[C@H](C)NC(=O)[C@H](CCCCN)NC(=O)[C@H](CO)NC(=O)[C@H](Cc1ccc(O)cc1)NC(=O)CNC(=O)CNC(=O)CN)C(=O)N[C@@H](CCCCN)C(=O)N[C@@H](CCC(N)=O)C(=O)N[C@@H](C)C(=O)N[C@@H](CCCCN)C(=O)N[C@@H](CCC(N)=O)C(=O)O | – | Aβ(1-40) fibrils | 1 h, room temperature | baseline: 1 M NaCl over PBS | binding ratio | 0.57 |
| CC(C)C[C@H](NC(=O)[C@H](C)N)C(=O)N[C@@H](CC(C)C)C(=O)N[C@@H](C)C(=O)N[C@@H](CC(N)=O)C(=O)N[C@@H](Cc1c[nH]cn1)C(=O)N[C@@H](CCC(=O)O)C(=O)N[C@@H](CCC(=O)O)C(=O)N[C@@H](CC(C)C)C(=O)N[C@@H](Cc1ccccc1)C(=O)N[C@@H](CCC(N)=O)C(=O)N[C@H](C(=O)NCC(=O)NCC(=O)NCC(=O)N[C@@H](CO)C(=O)N[C@@H](CSC1CC(=O)N(CCNC(=O)CCCCCN2C(=CC=C3CCCC(C=CC4=[N+](CCCCS(=O)(=O)[O-])c5ccc(S(=O)(=O)O)cc5C4(C)C)=C3Oc3ccc(S(=O)(=O)O)cc3)C(C)(C)c3cc(S(=O)(=O)O)ccc32)C1=O)C(=O)O)[C@@H](C)O (some centres unmarked) | – | human liver FFPE sections | – | baseline: HCC over cirrhosis | fluorescence intensity ratio | 1.7 fold |
| COc1ccc([N+](=O)[O-])cc1NC(=O)CCC(=O)[O][Zn][O]C(=O)CCC(=O)Nc1cc([N+](=O)[O-])ccc1OC.c1ccncc1 | antioxidant activity | – | 15.62 µg/mL | – | DPPH scavenging | 61.6 ± 0.78% |
| O=C(O)/C=C/c1ccc(O)cc1 | – | – | 125 µg/mL | – | DPPH radical scavenging | 59.5 ± 0.4% |
| O=C1C=CC(=O)C(c2cc(Cl)ccc2Cl)=C1 | – | C57BL/6 mouse B16 melanoma | po, 3 mg/kg daily, 5 days/week | – | tumour growth inhibition | ~83% |
| CC(C)[C@H](N)C(=O)N[C@@H](Cc1ccc(O)cc1)C(=O)N[C@@H](CCCCN)C(=O)N[C@H](C(=O)N[C@@H](CCCCN)C(=O)N[C@H](C(=O)N[C@@H](CCCCN)C(=O)N[C@H](C(=O)N[C@@H](CCCCN)C(=O)N[C@H](C(=O)N[C@@H](CCCCN)C(=O)N[C@H](C(=O)N[C@@H](CCCCN)C(=O)N[C@H](C(=O)N[C@@H](CCCCN)C(=O)N[C@H](C(=O)N[C@@H](CCCCN)C(=O)N[C@H](C(=O)O)[C@@H](C)O)C(C)C)[C@@H](C)O)C(C)C)[C@@H](C)O)C(C)C)[C@@H](C)O)C(C)C | binding | AA amyloid mouse liver homogenate | 1 h, room temperature | – | bound fraction | 92% |
| CC[C@H](C)[C@H](NC(=O)[C@H](Cc1ccc(O)cc1)NC(=O)[C@@H]1CCCN1C(=O)[C@H](CCCNC(=N)N)NC(=O)[C@H](CCCNC(=N)N)NC(=O)CC[C@H](N)C(=O)NCCOCCOCCO[C@@H]1O[C@H](CO)[C@@H](O[C@@H]2O[C@H](CO)[C@H](O)[C@H](O)[C@H]2O)[C@H](O)[C@H]1O)C(=O)N[C@@H](CC(C)C)C(=O)O | 6 Hz seizure test | CF-1 mouse | intracerebroventricular, 30 min, 32 mA corneal stimulation | – | ED50 | < 0.001 nmol |
| CC[C@H](C)[C@@H]1NC(=O)[C@@H](NC(=O)CNC(=O)c2ccc(F)cc2)CSSC[C@@H]2NC(=O)[C@H](C)NC(=O)CNC(=O)[C@@H]3CCCN3C(=O)[C@@H]3CSSC[C@@H](C(=O)NCC(=O)O)NC(=O)[C@H](Cc4ccc(O)cc4)NC(=O)CNC(=O)[C@H](CC(N)=O)NC(=O)CNC(=O)[C@H](CCCNC(=N)N)NC(=O)[C@H](CSSC[C@H](NC(=O)[C@H](CCCNC(=N)N)NC(=O)[C@H](Cc4ccccc4)NC(=O)[C@H](CC(C)C)NC(=O)[C@H](CC(C)C)NC(=O)[C@H]([C@@H](C)O)NC(=O)CNC(=O)[C@H](CC(C)C)NC(=O)[C@H](CC(=O)O)NC(=O)[C@H]([C@@H](C)O)NC(=O)[C@H](CCCNC(=N)N)NC(=O)[C@H](CCSC)NC(=O)[C@H](CC(N)=O)NC(=O)[C@H](CC(C)C)NC1=O)C(=O)N[C@@H](CCCNC(=N)N)C(=O)N[C@@H](CCCNC(=N)N)C(=O)N[C@@H](CC(=O)O)C(=O)N[C@@H](CO)C(=O)N[C@@H](CC(=O)O)C(=O)N3)NC(=O)[C@H]([C@@H](C)CC)NC2=O [fluorine-18 labelled] | PET | mouse, 293 xenograft (integrin αvβ6-negative) | 0.5 h | – | tumour uptake | 1.4 ± 0.6 %ID/g |
| CC(=O)N[C@@H](Cc1c[nH]c2ccccc12)C(=O)NCC(=O)N[C@@H](C)C(=O)N[C@H]1CSCC(=O)Nc2ccc(cc2)N=Nc2ccc(c(S(=O)(=O)O)c2)-c2ccc(cc2S(=O)(=O)O)N=Nc2ccc(cc2)NC(=O)CSC[C@@H](C(=O)N[C@@H](C)C(=O)N[C@@H](CCC(N)=O)C(N)=O)NC(=O)[C@H](CCCNC(=N)N)NC(=O)[C@H](C)NC(=O)[C@H](C)NC(=O)[C@H](C)NC(=O)[C@H](CCC(=O)O)NC(=O)[C@H](CCCNC(=N)N)NC(=O)[C@H](C)NC(=O)[C@H](C)NC(=O)[C@H](C)NC(=O)[C@H](CCC(=O)O)NC(=O)[C@H](CCCNC(=N)N)NC(=O)[C@H](C)NC(=O)[C@H](C)NC(=O)[C@H](C)NC(=O)[C@H](CCC(=O)O)NC(=O)[C@H](CCCNC(=N)N)NC(=O)[C@H](C)NC(=O)[C@H](C)NC(=O)[C@H](C)NC(=O)[C@H](CCC(=O)O)NC1=O | cis-to-trans reversion, UV-Vis absorbance | 10 mM phosphate buffer | pH 7.0, 20 °C, added: 365 nm irradiation | – | thermal relaxation half-life | 16 ± 0.5 min |

Repeated from above:
| Structure (SMILES) | assay | test system | setting | scale | endpoint | value |
| --- | --- | --- | --- | --- | --- | --- |
| CC[C@H](C)[C@H](NC(=O)[C@@H](NC(=O)[C@H](CC(=O)O)NC(C)=O)[C@@H](C)O)C(=O)N[C@@H](CCCNC(=N)N)C(=O)N[C@@H](CC(C)C)C(=O)N[C@@H](CC(C)C)C(=O)N[C@@H](Cc1ccccc1)C(=O)N[C@@H](CCC(N)=O)C(=O)N[C@@H](CC(C)C)C(=O)N[C@@H](CCSC)C(=O)N[C@@H](CCCNC(=N)N)C(=O)N1CCC[C@H]1C(=O)N1CCC[C@H]1C(=O)N[C@@H](CC(N)=O)C(=O)N[C@@H](CCSC)C(=O)N[C@H](C(=O)N1CCC[C@H]1C(=O)N[C@@H](C)C(=O)N[C@H](C(=O)N[C@@H](CC(N)=O)C(=O)N[C@@H](C)C(N)=O)C(C)C)[C@@H](C)O | refers to: HA-02 tetramer | antigen-experienced tetramer+ CD4 T cells, healthy adults, HLA-DRB1*0101 | dose not given | – | α4β7− CCR9+ cells | 6.67% |
| C[C@H](NC(=O)[C@H](CCC(N)=O)NC(=O)[C@H](CCCCN)NC(=O)[C@H](C)NC(=O)[C@@H]1CCCN1C(=O)[C@H](C)NC(=O)[C@H](CCCCN)NC(=O)[C@H](CCC(N)=O)NC(=O)[C@H](C)NC(=O)[C@H](CCCCN)NC(=O)[C@H](CCC(N)=O)NC(=O)[C@@H]1CCCN1C(=O)[C@H](CCC(N)=O)NC(=O)[C@H](CCCCN)NC(=O)[C@H](C)NC(=O)[C@H](CCC(N)=O)NC(=O)[C@H](CCCCN)NC(=O)[C@H](C)NC(=O)[C@@H]1CCCN1C(=O)[C@H](C)NC(=O)[C@H](CCCCN)NC(=O)[C@H](CCC(N)=O)NC(=O)[C@H](C)NC(=O)[C@H](CCCCN)NC(=O)[C@H](CO)NC(=O)[C@H](Cc1ccc(O)cc1)NC(=O)CNC(=O)CNC(=O)CN)C(=O)N[C@@H](CCCCN)C(=O)N[C@@H](CCC(N)=O)C(=O)O | binding | AA amyloid mouse liver homogenate | 1 h, room temperature | – | bound fraction | 11% |
| COC(=O)C[C@](O)(CCCC(C)(C)OC(C)=O)C(=O)O[C@@H]1C(OC)=C[C@]23CCCN2CCc2cc4c(cc2[C@H]13)OCO4 | western blot | BALB/c nude mouse, KP-4 xenograft, tumour | 5.4 mg/kg | baseline: vehicle | MCL-1 protein level | decreased |
